Assay results from different studies.
Lines come from different studies, so protocols differ. Numbers after ± are the reported error.
Isochorismatase domain-containing protein 1: Isochorismatase domain-containing protein 1 (Homo sapiens, UniProt Q96CN7)
UniProt Q96CN7, sequence (whole entry, looked up): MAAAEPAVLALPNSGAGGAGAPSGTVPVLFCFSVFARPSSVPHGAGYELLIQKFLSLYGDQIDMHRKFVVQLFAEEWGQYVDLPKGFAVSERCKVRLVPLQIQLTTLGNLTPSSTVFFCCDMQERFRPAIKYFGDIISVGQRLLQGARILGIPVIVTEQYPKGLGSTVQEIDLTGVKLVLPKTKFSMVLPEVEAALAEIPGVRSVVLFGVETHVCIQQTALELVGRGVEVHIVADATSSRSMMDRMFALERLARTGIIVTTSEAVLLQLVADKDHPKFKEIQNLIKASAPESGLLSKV
UniProt Q9H6E5, sequence (whole entry, looked up): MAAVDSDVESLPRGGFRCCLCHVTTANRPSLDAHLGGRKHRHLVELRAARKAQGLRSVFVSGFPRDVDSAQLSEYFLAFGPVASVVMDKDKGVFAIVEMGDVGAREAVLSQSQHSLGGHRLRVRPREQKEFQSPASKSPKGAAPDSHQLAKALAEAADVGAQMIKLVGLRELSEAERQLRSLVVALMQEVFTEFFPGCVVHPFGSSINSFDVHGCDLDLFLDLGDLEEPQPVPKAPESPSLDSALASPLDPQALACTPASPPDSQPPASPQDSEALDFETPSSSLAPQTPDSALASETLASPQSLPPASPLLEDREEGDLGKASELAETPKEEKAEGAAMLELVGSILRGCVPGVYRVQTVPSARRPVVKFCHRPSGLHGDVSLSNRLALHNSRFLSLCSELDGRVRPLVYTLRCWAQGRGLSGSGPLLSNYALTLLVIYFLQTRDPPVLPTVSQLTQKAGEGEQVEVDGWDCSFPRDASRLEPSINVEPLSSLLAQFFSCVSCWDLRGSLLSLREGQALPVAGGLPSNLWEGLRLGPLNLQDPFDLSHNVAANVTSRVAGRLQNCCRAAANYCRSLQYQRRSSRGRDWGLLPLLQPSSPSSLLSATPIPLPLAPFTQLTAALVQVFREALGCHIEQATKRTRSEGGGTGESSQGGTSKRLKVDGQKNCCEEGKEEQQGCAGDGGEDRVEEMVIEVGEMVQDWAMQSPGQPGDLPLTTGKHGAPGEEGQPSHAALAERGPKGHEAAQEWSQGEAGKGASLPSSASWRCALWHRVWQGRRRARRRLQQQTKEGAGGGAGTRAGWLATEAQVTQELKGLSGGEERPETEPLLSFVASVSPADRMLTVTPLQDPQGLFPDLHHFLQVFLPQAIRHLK
UniProt P31641, sequence (whole entry, unmodified, looked up): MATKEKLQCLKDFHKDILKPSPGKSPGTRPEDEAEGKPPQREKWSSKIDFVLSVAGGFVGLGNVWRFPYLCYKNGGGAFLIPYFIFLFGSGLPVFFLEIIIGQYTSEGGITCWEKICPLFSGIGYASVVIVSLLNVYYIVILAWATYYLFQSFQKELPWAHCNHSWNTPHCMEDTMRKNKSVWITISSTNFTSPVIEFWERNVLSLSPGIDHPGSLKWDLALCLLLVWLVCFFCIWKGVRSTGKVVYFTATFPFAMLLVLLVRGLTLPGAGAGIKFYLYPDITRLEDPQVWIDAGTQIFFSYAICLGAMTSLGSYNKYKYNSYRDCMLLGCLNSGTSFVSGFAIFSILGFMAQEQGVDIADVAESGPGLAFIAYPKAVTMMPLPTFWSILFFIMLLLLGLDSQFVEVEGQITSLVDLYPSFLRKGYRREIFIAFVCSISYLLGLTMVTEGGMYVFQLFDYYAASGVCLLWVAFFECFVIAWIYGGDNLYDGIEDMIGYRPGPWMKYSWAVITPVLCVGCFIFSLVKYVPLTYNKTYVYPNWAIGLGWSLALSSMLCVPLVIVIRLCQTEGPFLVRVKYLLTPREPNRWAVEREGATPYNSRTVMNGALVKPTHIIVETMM
UniProt O60674, sequence (whole entry, looked up): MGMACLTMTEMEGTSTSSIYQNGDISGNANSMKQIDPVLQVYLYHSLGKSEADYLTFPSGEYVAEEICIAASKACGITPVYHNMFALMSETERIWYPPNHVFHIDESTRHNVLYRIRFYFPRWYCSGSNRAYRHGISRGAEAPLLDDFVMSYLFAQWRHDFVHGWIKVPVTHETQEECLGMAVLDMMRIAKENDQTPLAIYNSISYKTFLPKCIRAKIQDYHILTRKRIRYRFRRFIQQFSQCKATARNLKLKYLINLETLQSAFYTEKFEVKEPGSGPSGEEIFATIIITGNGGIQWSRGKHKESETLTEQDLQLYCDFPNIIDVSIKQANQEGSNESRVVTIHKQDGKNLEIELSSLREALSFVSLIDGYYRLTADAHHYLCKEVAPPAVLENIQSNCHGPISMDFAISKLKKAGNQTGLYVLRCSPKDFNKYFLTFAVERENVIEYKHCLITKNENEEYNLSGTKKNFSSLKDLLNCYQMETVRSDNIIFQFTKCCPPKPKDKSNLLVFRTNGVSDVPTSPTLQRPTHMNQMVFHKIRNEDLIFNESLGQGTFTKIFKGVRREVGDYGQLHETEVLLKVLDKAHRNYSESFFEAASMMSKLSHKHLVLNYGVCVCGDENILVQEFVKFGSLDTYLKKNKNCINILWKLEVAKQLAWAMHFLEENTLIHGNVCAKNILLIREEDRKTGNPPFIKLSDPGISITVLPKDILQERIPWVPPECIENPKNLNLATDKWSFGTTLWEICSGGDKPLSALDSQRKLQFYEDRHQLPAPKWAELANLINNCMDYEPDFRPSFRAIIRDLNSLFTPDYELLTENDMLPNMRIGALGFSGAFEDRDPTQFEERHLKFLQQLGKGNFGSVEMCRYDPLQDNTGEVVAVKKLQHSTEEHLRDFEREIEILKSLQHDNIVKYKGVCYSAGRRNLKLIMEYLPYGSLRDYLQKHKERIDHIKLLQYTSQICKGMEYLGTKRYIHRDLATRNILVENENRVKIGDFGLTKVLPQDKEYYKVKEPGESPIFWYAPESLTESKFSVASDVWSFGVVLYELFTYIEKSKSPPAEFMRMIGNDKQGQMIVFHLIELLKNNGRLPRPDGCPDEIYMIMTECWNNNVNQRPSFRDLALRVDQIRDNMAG
UniProt P21673, sequence (whole entry, looked up): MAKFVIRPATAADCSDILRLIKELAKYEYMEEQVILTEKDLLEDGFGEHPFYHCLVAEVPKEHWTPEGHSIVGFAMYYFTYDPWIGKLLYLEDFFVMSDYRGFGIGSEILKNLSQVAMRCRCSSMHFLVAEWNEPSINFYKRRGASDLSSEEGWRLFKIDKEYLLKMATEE
UniProt P07339, sequence (whole entry, looked up): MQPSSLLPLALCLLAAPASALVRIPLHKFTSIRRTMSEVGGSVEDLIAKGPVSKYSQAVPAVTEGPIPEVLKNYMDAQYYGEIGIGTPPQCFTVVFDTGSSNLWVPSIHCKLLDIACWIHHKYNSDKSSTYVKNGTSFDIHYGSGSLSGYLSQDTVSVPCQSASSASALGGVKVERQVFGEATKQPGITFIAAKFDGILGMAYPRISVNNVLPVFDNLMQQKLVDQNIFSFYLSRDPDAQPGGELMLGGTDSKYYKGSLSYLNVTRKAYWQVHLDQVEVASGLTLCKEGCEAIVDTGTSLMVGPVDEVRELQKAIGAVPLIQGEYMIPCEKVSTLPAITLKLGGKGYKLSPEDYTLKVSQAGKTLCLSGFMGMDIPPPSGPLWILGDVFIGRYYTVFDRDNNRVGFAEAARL
UniProt P02749, sequence (whole entry, unmodified, looked up): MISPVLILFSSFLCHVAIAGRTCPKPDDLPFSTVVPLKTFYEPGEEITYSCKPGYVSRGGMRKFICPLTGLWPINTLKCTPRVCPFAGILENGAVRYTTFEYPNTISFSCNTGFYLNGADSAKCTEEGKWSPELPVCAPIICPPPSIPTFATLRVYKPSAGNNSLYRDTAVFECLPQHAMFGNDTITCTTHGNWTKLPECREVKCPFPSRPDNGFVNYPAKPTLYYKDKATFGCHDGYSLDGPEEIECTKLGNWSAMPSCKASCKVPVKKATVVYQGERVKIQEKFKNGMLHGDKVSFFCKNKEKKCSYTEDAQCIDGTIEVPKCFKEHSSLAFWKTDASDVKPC
UniProt Q9UBX5, sequence (whole entry, looked up): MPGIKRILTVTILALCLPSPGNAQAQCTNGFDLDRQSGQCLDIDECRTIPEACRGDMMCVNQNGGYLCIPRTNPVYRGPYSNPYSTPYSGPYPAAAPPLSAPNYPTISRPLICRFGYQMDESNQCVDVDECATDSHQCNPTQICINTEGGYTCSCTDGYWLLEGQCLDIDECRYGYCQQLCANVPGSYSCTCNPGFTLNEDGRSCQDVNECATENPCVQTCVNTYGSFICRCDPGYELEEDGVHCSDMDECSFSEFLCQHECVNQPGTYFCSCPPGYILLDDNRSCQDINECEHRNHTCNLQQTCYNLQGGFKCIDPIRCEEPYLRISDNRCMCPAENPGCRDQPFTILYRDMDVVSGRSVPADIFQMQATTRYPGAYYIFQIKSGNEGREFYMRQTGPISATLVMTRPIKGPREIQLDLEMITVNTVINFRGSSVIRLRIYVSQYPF
UniProt P30988, sequence (whole entry, looked up): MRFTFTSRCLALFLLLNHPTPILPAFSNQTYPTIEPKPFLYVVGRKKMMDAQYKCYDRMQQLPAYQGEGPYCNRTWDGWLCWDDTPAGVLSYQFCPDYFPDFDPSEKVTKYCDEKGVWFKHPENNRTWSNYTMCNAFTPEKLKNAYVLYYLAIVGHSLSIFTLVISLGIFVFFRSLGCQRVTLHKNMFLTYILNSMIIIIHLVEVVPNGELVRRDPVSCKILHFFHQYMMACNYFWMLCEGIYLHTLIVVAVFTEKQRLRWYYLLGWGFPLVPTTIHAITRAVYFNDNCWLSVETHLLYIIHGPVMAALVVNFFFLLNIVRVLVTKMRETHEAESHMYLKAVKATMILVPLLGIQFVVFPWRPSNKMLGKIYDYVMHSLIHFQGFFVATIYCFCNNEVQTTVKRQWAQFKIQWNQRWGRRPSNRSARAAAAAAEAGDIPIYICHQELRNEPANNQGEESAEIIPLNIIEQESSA
UniProt P02754, sequence (whole entry, looked up): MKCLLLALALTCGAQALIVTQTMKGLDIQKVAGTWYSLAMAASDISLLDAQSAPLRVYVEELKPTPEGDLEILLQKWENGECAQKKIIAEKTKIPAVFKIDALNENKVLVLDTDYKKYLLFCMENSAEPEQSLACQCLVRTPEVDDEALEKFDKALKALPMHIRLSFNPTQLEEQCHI

CC(C)(Oc1ccc(C(=O)c2ccc(Cl)cc2)cc1)C(=O)O  Kd (Fatty acid-binding protein, liver (Mus musculus, UniProt P12710); binding, native mass spectrometry; mouse liver tissue): 44 ± 5 µM
CC(C)CC(=O)N[C@H](C(=O)N[C@H](C(=O)N[C@@H](CC(C)C)[C@@H](O)CC(=O)N[C@@H](C)C(=O)N[C@@H](CC(C)C)[C@@H](O)CC(=O)NCCCC[C@H](NC(=O)CCOCCOCCNC(=O)CN1CCN(CC(=O)O)CCN(CC(=O)O)CC1)C(=O)O)C(C)C)C(C)C  Kd (Cathepsin D (CTSD, Homo sapiens, UniProt P07339); binding, SPR): 0.65 µM
CC(=O)N([O-])CCCCCNC(=O)CCC(=O)N([O-])CCCCCNC(=O)CCC(=O)N([O-])CCCCCN.[Fe+3]  Kd (uncharacterized protein (Bordetella pertussis, UniProt Q7VXW9); siderophore binding, fluorescence quenching titration; pH 6.5, room temperature, 100 mM NaCl, with: ferric siderophore): ~1 µM
CC1=C[C@H](O)CC(C)(C)[C@H]1/C=C/C(C)=C/C=C/C(C)=C/C=C/C=C(C)/C=C/C=C(C)/C=C/C1=C(C)C[C@@H](O)CC1(C)C  Kd (Beta-lactoglobulin (LGB, Bos taurus, UniProt P02754); binding, fluorescence quenching; PBS; 30 min, 308 K): 4810 µM
CC(C)(COP(=O)(O)OP(=O)(O)OC[C@H]1O[C@@H](n2cnc3c(N)ncnc32)[C@H](O)[C@@H]1OP(=O)(O)O)[C@@H](O)C(=O)NCCC(=O)NCCS  Kd (Diamine acetyltransferase 1 (Homo sapiens, UniProt P21673); competitor, competition MS pulldown; SW-620 cell lysate; with: photo-immobilized beads): 2.67 µM
C#C[C@]1(O)CC[C@H]2[C@@H]3CCC4=CC(=O)CC[C@@H]4[C@H]3C(=C)C[C@@]21CC  inhibition (THP-1; pyroptotic LDH release; 2 µM, 40 min, with: LPS then nigericin): -8.51%
CN(C)Cc1c(C(=O)NCCOc2ccc(C(=O)NO)cc2)oc2ccccc12  Kd (Isochorismatase domain-containing protein 1; inhibitor, competition pulldown; SW620 and MV4-11 lysate; 1 h): > 30.2 µM
CC(=N)N  Kd (acetylcholine receptor, Rana temporaria; channel block, voltage clamp fluctuation; endplate; pure and Na+ mixture): ~18000 µM
O=C(/C=C/c1ccc(CN(CCO)CCc2c[nH]c3ccccc23)cc1)NO  Kd (Isochorismatase domain-containing protein 1; inhibitor, competition pulldown; SW620 and MV4-11 lysate; 1 h): > 30.2 µM
CC(C)C[C@H](NC(=O)[C@H](CCCNC(=N)N)NC(=O)[C@@H](NC(=O)[C@H](CC(C)C)NC(=O)[C@H](Cc1ccccc1)NC(=O)[C@H](CC(N)=O)NC(=O)[C@H](C)NC(=O)CCCCCNC(=S)Nc1ccc2c(c1)C(=O)OC21c2ccc(O)cc2Oc2cc(O)ccc21)C(C)C)C(=O)N[C@@H](CCC(N)=O)C(=O)N[C@H](C(=O)N[C@@H](Cc1ccc(O)cc1)C(=O)N1CCC[C@H]1C(=O)N[C@@H](CCCNC(=N)N)C(=O)N[C@H](C(=O)N[C@@H](CC(N)=O)C(=O)N[C@H](C(=O)NCC(=O)N[C@@H](C)C(=O)N[C@@H](CC(N)=O)C(=O)N[C@H](C(=O)N[C@@H](Cc1ccc(O)cc1)C(N)=O)[C@@H](C)O)C(C)C)[C@@H](C)O)[C@@H](C)O  Kd (Amylin receptor AMY2; CALCR/RAMP2, extracellular domains (Homo sapiens, UniProt O60895+P30988); peptide binding, fluorescence polarization; pH 7.4, MBP-CTR ECD with 100 µM RAMP2 ECD): 1.62 µM
N=C(N)NCCC[C@H](N)C(=O)O  Kd (acetylcholine receptor, Rana temporaria; channel block, voltage clamp fluctuation; endplate; reduced Na+ mixture): ~24000 µM
CCN(CC)Cc1ccc2cc(COC(=O)Nc3ccc(C(=O)NO)cc3)ccc2c1  Kd (Isochorismatase domain-containing protein 1; inhibitor, competition pulldown; SW620 and MV4-11 lysate; 1 h): > 30.2 µM
Cc1cc2nc3c(=O)[nH]c(=O)nc-3n(C[C@H](O)[C@H](O)[C@H](O)COP(=O)(O)OP(=O)(O)OC[C@H]3O[C@@H](n4cnc5c(N)ncnc54)[C@H](O)[C@@H]3O)c2cc1C  Kd (Fibulin-5 (FBLN5, Homo sapiens, UniProt Q9UBX5); binding, MS pulldown competition; SW-620 cell lysate): 4.74 µM
Cc1cc(Nc2cc3ncccc3c(N[C@@H]3C[C@H]4CC[C@@H](C3)N4CCC#N)n2)n[nH]1  Kd (MAP3K9 (Homo sapiens, UniProt P80192); binding, KINOMEscan): 0.054 µM
[H]/N=C(/N)NCC(=O)O  Kd (SLC6A6 (Homo sapiens, UniProt P31641, Y138A); microscale thermophoresis; Y138A mutant): no binding
CO[C@H]1O[C@H](COS(=O)(=O)O)[C@@H](O[C@@H]2O[C@@H](C(=O)O)[C@@H](O[C@H]3O[C@H](COS(=O)(=O)O)[C@@H](O[C@@H]4O[C@H](C(=O)O)[C@@H](O[C@H]5O[C@H](COS(=O)(=O)O)[C@@H](O)[C@H](O)[C@H]5NS(=O)(=O)O)[C@H](O)[C@H]4O)[C@H](OS(=O)(=O)O)[C@H]3NS(=O)(=O)O)[C@H](O)[C@H]2OS(=O)(=O)O)[C@H](O)[C@H]1NS(=O)(=O)O  Kd (Beta-2-glycoprotein 1, domain V (APOH, Homo sapiens, UniProt P02749, M290L/V266L); tryptophan fluorescence titration; pH 7.0, 100 mM NaCl): 10 µM
O=C(COc1ccc(C2=[N+]3C(=Cc4ccc(-c5cccs5)n4[B-]3(F)F)C=C2)cc1)NCCCCCNC(=O)[C@H]1O[C@H](OP(=O)(O)OP(=O)(O)OCC2OC(n3ccc(=O)[nH]c3=O)C(O)C2O)[C@H](O)[C@@H](O)[C@@H]1O (stereo partly drawn)  Kd (P2Y purinoceptor 14 (P2RY14, Homo sapiens, UniProt Q15391); binding, agonist, NanoBRET whole cell; HEK293): 0.0305 ± 0.0144 µM
Cc1ccc(S(=O)(=O)Oc2ccc(/C=N/Nc3ccc(C(=O)O)cc3)cc2CN(C)N)cc1  Kd (HTR1E (Homo sapiens, UniProt P28566); dynamic mass redistribution; HEK293 expressing HTR1E): 0.00138 ± 0.0002 µM
CC(=O)O[C@@H]1C[C@H](O)[C@@]23CO[C@@H](O)[C@]1(C)[C@@H]2C[C@@H](O)[C@]1(C)[C@@H]3C(=O)[C@H](OC(C)=O)[C@@]2(C)[C@H](c3ccoc3)C[C@H]3O[C@]321  inhibition (THP-1; pyroptotic LDH release; 2 µM, 40 min, with: LPS then nigericin): 3.46%
[Ca+2].[Cl-].[Cl-]  Kd (mutant huntingtin exon 1; calmodulin binding disruption, AlphaScreen): 2 ± 0.4 µM
O=C(CCCCCCNC(=O)c1cnc(N(c2ccccc2)c2ccccc2)nc1)NO  Kd (Isochorismatase domain-containing protein 1; inhibitor, competition pulldown; SW620 and MV4-11 lysate; 1 h): 1.04 µM
CCOc1ccc(C(=O)CC(SCc2ccc(Cl)cc2)C(=O)O)cc1 (stereo not drawn)  Kd (Pleckstrin homology domain-containing family A member 4, PH domain (PLEKHA4, Homo sapiens, UniProt Q9H4M7); binding, ITC; 25 °C, racemic compound): 18.1 µM
O=C(CCCCCCNC(=O)c1cnc(N(c2ccccc2)c2ccccc2Cl)nc1)NO  Kd (Isochorismatase domain-containing protein 1; inhibitor, competition pulldown; SW620 and MV4-11 lysate; 1 h): > 30.2 µM
CC[C@H](C)[C@H](NC(=O)[C@H](CC(C)C)NC(=O)[C@H](Cc1ccc(OP(=O)(O)O)cc1)NC(=O)[C@H](CCC(=O)O)NC(=O)[C@H](CC(=O)O)NC(=O)[C@H](C)NC(=O)[C@H](CC(=O)O)NC(=O)[C@@H](NC(=O)[C@@H](NC(=O)[C@H](CC(=O)O)NC(=O)[C@H](CC(=O)O)NC(=O)[C@H](CCSC)NC(=O)c1ccc2c(c1)C(=O)OC21c2ccc(N(C)C)cc2Oc2cc(N(C)C)ccc21)C(C)C)C(C)C)C(=O)N1CCC[C@H]1C(=O)N[C@@H](CCC(N)=O)C(=O)N[C@@H](CCC(N)=O)C(=O)NCC(=O)N[C@@H](Cc1ccccc1)C(=O)N[C@@H](CC(=O)O)C(=O)O  Kd (Tyrosine-protein kinase JAK2, SH2 domain (JAK2, Homo sapiens, UniProt O60674); binding): 1.94 µM
CCCN1CCN(c2ccc(-c3cncc(Cl)c3N3CCC4(CCNC4=O)CC3)cc2)CC1  Kd (LACTB (Homo sapiens, UniProt P83111); SILAC displacement; LS174T-L5 cell lysate): 15.6 µM
Nc1ncnc2c1ncn2[C@@H]1O[C@H](COP(=O)(O)OP(=O)(O)NP(=O)(O)O)[C@@H](O)[C@H]1O  Kd (Cell cycle histidine kinase CckA, CA domain (Caulobacter vibrioides, UniProt Q9X688); isothermal titration calorimetry; Caulobacter crescentus; 12 °C, with: without c-di-GMP): 12 µM
CCCC(CCC)C(=O)O  Kd (Isochorismatase domain-containing protein 1; inhibitor, competition pulldown; SW620 and MV4-11 lysate; 1 h): > 3020 µM
C=CC(=O)N1CCN(c2nc(OC[C@@H]3CCCN3C)nc3c(F)c(-c4nc(N)cc(C)c4C(F)(F)F)c(Cl)cc23)[C@@H](C)C1  Kd (GTPase KRas, GDP-bound (KRAS, Homo sapiens, UniProt P01116, G12D); binding, surface plasmon resonance): 16.5 ± 0.57 µM
O=c1ccn([C@@H]2O[C@H](COP(=O)(O)OP(=O)(O)O)[C@@H](O)[C@H]2O)c(=O)[nH]1  Kd (ABO (Homo sapiens, UniProt P16442, G235S/G268A/L266M/R176G/W181E); methyl-TROSY NMR titration lineshape; mutant presaturated with H-disaccharide): 499 ± 4 µM
C#Cc1cccc(Nc2ncnc3cc(OC)c(OCCCCCCC(=O)NO)cc23)c1  Kd (Isochorismatase domain-containing protein 1; inhibitor, competition pulldown; SW620 and MV4-11 lysate; 1 h): > 30.2 µM
CCCCCCCCCCCCCCCC(=O)OC[C@H](COP(=O)(O)O[C@H]1[C@H](O)[C@@H](OP(=O)(O)O)[C@H](OP(=O)(O)O)[C@@H](OP(=O)(O)O)[C@H]1O)OC(=O)CCCCCCCCCCCCCCC  Kd (TUT1 (Homo sapiens, UniProt Q9H6E5); binding): 0.11 ± 0.026 µM
Cc1ncc(C[n+]2csc(CCO)c2C)c(N)n1  Kd (unknown protein (Thermotoga maritima, UniProt Q9WYV6); isothermal titration calorimetry; pH 6, 25 °C): 1.58 µM
Nc1ccccc1NC(=O)c1ccc(CNC(=O)OCc2cccnc2)cc1  Kd (Isochorismatase domain-containing protein 1; inhibitor, competition pulldown; SW620 and MV4-11 lysate; 1 h): > 30.2 µM
